# Published values gathered from unrelated publications.
# Protocols differ between the studies behind these lines. ± gives the spread as reported.
Structure (SMILES),test,system,setting,scale,measurement,result
CC[C@H](C)[C@@H]1NC(=O)[C@H](CCCCN)NC(=O)[C@H](CCCCN)NC(=O)[C@H](Cc2ccc(O)cc2)NC(=O)[C@H](CC(C)C)NC(=O)[C@@H]2CCCN2C(=O)[C@H](C)NC(=O)CNC(=O)CNC(=O)[C@H](CO)NC(=O)CNC(=O)CNC(=O)[C@H](CO)NC(=O)[C@H](CCC(=O)O)NC(=O)[C@H](CC(C)C)NC(=O)[C@H](CC(C)C)NC(=O)[C@H](CCCNC(=N)N)NC(=O)[C@H](CCCCN)NC(=O)[C@H]([C@@H](C)CC)NC(=O)[C@H]([C@@H](C)CC)NC(=O)[C@H](CCCCN)NC(=O)[C@H](CCCCN)NC(=O)[C@H](Cc2ccc(O)cc2)NC(=O)[C@H](CC(C)C)NC(=O)[C@@H]2CCCN2C(=O)CNC(=O)CNC(=O)[C@@H](NC(=O)CN)CSSC[C@@H](C(N)=O)NC(=O)[C@H](CC(C)C)NC(=O)[C@H](CCCNC(=N)N)NC(=O)[C@H](CCCCN)NC(=O)[C@H]([C@@H](C)CC)NC1=O,,25% human serum,"50 µM, 24 h",baseline: 0 h control,remaining intact peptide,11.5 ± 0.1%
CC[C@H](C)[C@@H]1NC(=O)[C@H](CCC(N)=O)NC(=O)[C@H](CCC(N)=O)NC(=O)[C@@H]2CCCN2C(=O)[C@@H]2CCCN2C(=O)[C@H](CO)NC(=O)[C@H](CCSC)NC(=O)[C@H](CCCNC(=N)N)NC(=O)[C@H]([C@@H](C)O)NC(=O)[C@H]([C@@H](C)O)NC(=O)[C@H](Cc2ccccc2)NC(=O)[C@@H](NC(=O)[C@@H](CO)NC(=O)[C@@H](Cc2ccccc2)NC(=O)[C@@H](CC(C)C)NC(=O)[C@@H]2CCCN2C(=O)[C@@H](CC(C)C)NC(=O)[C@@H](Cc2ccccc2)NC(=O)[C@@H](CCC(=O)O)NC(=O)[C@@H](C)NC(=O)[C@@H](Cc2ccccc2)NC(=O)[C@H](N)C(C)C)CSSC[C@@H](C(=O)N[C@@H](CC(C)C)C(=O)N[C@@H](CC(N)=O)C(N)=O)NC1=O,,20% human plasma,"0.5 mg/mL, 72 h, pH 7.4, 37 °C",,remaining intact peptide,~50%
CC[C@H](C)[C@@H]1NC(=O)[C@H](CCCCN)NC(=O)[C@H](CCCCN)NC(=O)[C@H](Cc2ccc(O)cc2)NC(=O)[C@H](CC(C)C)NC(=O)[C@@H]2CCCN2C(=O)[C@H](C)NC(=O)CNC(=O)CNC(=O)[C@H](CO)NC(=O)CNC(=O)CNC(=O)[C@H](CO)NC(=O)[C@H](CCC(=O)O)NC(=O)[C@H](CC(C)C)NC(=O)[C@H](CC(C)C)NC(=O)[C@H](CCCCN)NC(=O)[C@H](CCCCN)NC(=O)[C@H]([C@@H](C)CC)NC(=O)[C@H]([C@@H](C)CC)NC(=O)[C@H](CCCCN)NC(=O)[C@H](CCCCN)NC(=O)[C@H](Cc2ccc(O)cc2)NC(=O)[C@H](CC(C)C)NC(=O)[C@@H]2CCCN2C(=O)CNC(=O)CNC(=O)[C@@H](NC(=O)CN)CSSC[C@@H](C(N)=O)NC(=O)[C@H](CC(C)C)NC(=O)[C@H](CCCCN)NC(=O)[C@H](CCCCN)NC(=O)[C@H]([C@@H](C)CC)NC1=O,,25% human serum,"50 µM, 24 h",baseline: 0 h control,remaining intact peptide,10.4 ± 0.1%
CC(C)C[C@@H]1NC(=O)[C@@H]2CCCN2C(=O)[C@H](Cc2c[nH]c3ccccc23)NC(=O)[C@@H]2CCCN2C(=O)[C@H](Cc2ccccc2)NC(=O)[C@H](CC(=O)O)NC(=O)[C@H](C)NC(=O)[C@@H]2CSSC[C@H](NC(=O)[C@H](CCC(N)=O)NC(=O)[C@H](Cc3c[nH]cn3)NC(=O)CNC1=O)C(=O)N[C@@H](Cc1ccccc1)C(=O)N1CCC[C@H]1C(=O)N[C@@H](CC(=O)O)C(=O)NCC(=O)N[C@@H](Cc1ccccc1)C(=O)N[C@H]1CSSC[C@H](NC(=O)[C@H](CO)NC(=O)[C@H](Cc3c[nH]cn3)NC(=O)[C@H](Cc3c[nH]cn3)NC(=O)[C@H](Cc3c[nH]c4ccccc34)NC1=O)C(=O)N[C@@H](C(C)C)C(=O)N1CCC[C@H]1C(=O)N[C@@H](CO)C(=O)NCC(=O)N[C@@H]([C@@H](C)O)C(=O)N2,LC-MS/MS,human male pooled serum,"50 µg/mL, 24 h, 37 °C",,remaining intact,> 50%
CC[C@H](C)[C@H](N)C(=O)N[C@@H](CC(N)=O)C(=O)N[C@H]1CNC(=O)[C@H](CC(C)C)NC(=O)[C@H](CC(C)C)NC(=O)[C@H](Cc2ccccc2)NC(=O)[C@H](C)NC1=O,HPLC,ammonium carbonate,"24 h, pH 8.0, 37 °C",,remaining intact peptide,> 90%
O=C(NCCCCCn1ccc2ccc(F)cc21)Oc1ccccc1F,,porcine plasma,"20 µM, 0.5 h, 37 °C",,remaining parent compound,19 ± 6%
COc1cc(C(=O)NCCOCCOCCOCCNC(=O)c2ccc([18F])nc2)ccc1NC(=O)C1NC(CC(C)(C)C)C(C#N)(c2ccc(Cl)cc2F)C1c1cccc(Cl)c1F (stereo not shown),,human serum,"4 h, 37 °C",,remaining intact,~100%
CC(C)C[C@@H]1NC(=O)[C@H](Cc2ccccc2)NC(=O)[C@H](CCC(=O)O)NC(=O)CNC(=O)[C@H]([C@@H](C)O)NC(=O)[C@H](CCC(=O)O)NC(=O)[C@@H]2CCCN2C(=O)[C@H](CC(=O)O)NC(=O)[C@H](CC(C)C)NC(=O)[C@H](CCC(=O)NCCOCCOCC(=O)NCCCC[C@H](NC(=O)CC[C@@H]2NC(=O)[C@@H](CCCNC(=N)N)NC(=O)[C@H](CCCNC(=N)N)NC(=O)[C@@H](CCCNC(=N)N)NC(=O)[C@H](CCCNC(=N)N)NC(=O)[C@H](Cc3ccc4ccccc4c3)NC(=O)[C@@H](Cc3ccccc3)NC2=O)C(N)=O)NC(=O)CNC1=O,reversed-phase HPLC,25% human serum,"24 h, 37 °C",,remaining intact peptide,~80%
CC[C@H](C)[C@@H]1NC(=O)[C@H](CCCNC(=N)N)NC(=O)[C@H](CCCNC(=N)N)NC(=O)[C@H](Cc2ccc(O)cc2)NC(=O)[C@H](CC(C)C)NC(=O)[C@@H]2CCCN2C(=O)[C@H](C)NC(=O)CNC(=O)CNC(=O)[C@H](CO)NC(=O)CNC(=O)CNC(=O)[C@H](CO)NC(=O)[C@H](CCC(=O)O)NC(=O)[C@H](CC(C)C)NC(=O)[C@H](CC(C)C)NC(=O)[C@H](CCCNC(=N)N)NC(=O)[C@H](CCCNC(=N)N)NC(=O)[C@H]([C@@H](C)CC)NC(=O)[C@H]([C@@H](C)CC)NC(=O)[C@H](CCCNC(=N)N)NC(=O)[C@H](CCCNC(=N)N)NC(=O)[C@H](Cc2ccc(O)cc2)NC(=O)[C@H](CC(C)C)NC(=O)[C@@H]2CCCN2C(=O)CNC(=O)CNC(=O)[C@@H](NC(=O)CN)CSSC[C@@H](C(N)=O)NC(=O)[C@H](CC(C)C)NC(=O)[C@H](CCCNC(=N)N)NC(=O)[C@H](CCCNC(=N)N)NC(=O)[C@H]([C@@H](C)CC)NC1=O,,25% human serum,"50 µM, 24 h",baseline: 0 h control,remaining intact peptide,4.4 ± 0.2%
O=C(O)Cc1cccc(OC(=O)NCCCCCn2ccc3ccc(F)cc32)c1,,porcine liver S9 fraction without NADPH,"20 µM, 0.5 h, 37 °C",,remaining parent compound,73 ± 2%

# A few entries again:
Structure (SMILES),test,system,setting,scale,measurement,result
CC(C)C[C@@H]1NC(=O)[C@H](Cc2ccccc2)NC(=O)[C@H](CCC(=O)O)NC(=O)CNC(=O)[C@H]([C@@H](C)O)NC(=O)[C@H](CCC(=O)O)NC(=O)[C@@H]2CCCN2C(=O)[C@H](CC(=O)O)NC(=O)[C@H](CC(C)C)NC(=O)[C@H](CCC(=O)NCCOCCOCC(=O)NCCCC[C@H](NC(=O)CC[C@@H]2NC(=O)[C@@H](CCCNC(=N)N)NC(=O)[C@H](CCCNC(=N)N)NC(=O)[C@@H](CCCNC(=N)N)NC(=O)[C@H](CCCNC(=N)N)NC(=O)[C@H](Cc3ccc4ccccc4c3)NC(=O)[C@@H](Cc3ccccc3)NC2=O)C(N)=O)NC(=O)CNC1=O,reversed-phase HPLC,25% human serum,"24 h, 37 °C",,remaining intact peptide,~80%
CC[C@H](C)[C@@H]1NC(=O)[C@H](CCCNC(=N)N)NC(=O)[C@H](CCCNC(=N)N)NC(=O)[C@H](Cc2ccc(O)cc2)NC(=O)[C@H](CC(C)C)NC(=O)[C@@H]2CCCN2C(=O)[C@H](C)NC(=O)CNC(=O)CNC(=O)[C@H](CO)NC(=O)CNC(=O)CNC(=O)[C@H](CO)NC(=O)[C@H](CCC(=O)O)NC(=O)[C@H](CC(C)C)NC(=O)[C@H](CC(C)C)NC(=O)[C@H](CCCNC(=N)N)NC(=O)[C@H](CCCNC(=N)N)NC(=O)[C@H]([C@@H](C)CC)NC(=O)[C@H]([C@@H](C)CC)NC(=O)[C@H](CCCNC(=N)N)NC(=O)[C@H](CCCNC(=N)N)NC(=O)[C@H](Cc2ccc(O)cc2)NC(=O)[C@H](CC(C)C)NC(=O)[C@@H]2CCCN2C(=O)CNC(=O)CNC(=O)[C@@H](NC(=O)CN)CSSC[C@@H](C(N)=O)NC(=O)[C@H](CC(C)C)NC(=O)[C@H](CCCNC(=N)N)NC(=O)[C@H](CCCNC(=N)N)NC(=O)[C@H]([C@@H](C)CC)NC1=O,,25% human serum,"50 µM, 24 h",baseline: 0 h control,remaining intact peptide,4.4 ± 0.2%
